Measured values collected from several papers.
Several values in a cell are separate wells, animals, samples, runs or records. ± gives the spread as reported.
TOP2A: DNA topoisomerase 2-alpha (TOP2A, Homo sapiens, UniProt P11388)
Sequence of UniProt P11388 (whole entry, looked up): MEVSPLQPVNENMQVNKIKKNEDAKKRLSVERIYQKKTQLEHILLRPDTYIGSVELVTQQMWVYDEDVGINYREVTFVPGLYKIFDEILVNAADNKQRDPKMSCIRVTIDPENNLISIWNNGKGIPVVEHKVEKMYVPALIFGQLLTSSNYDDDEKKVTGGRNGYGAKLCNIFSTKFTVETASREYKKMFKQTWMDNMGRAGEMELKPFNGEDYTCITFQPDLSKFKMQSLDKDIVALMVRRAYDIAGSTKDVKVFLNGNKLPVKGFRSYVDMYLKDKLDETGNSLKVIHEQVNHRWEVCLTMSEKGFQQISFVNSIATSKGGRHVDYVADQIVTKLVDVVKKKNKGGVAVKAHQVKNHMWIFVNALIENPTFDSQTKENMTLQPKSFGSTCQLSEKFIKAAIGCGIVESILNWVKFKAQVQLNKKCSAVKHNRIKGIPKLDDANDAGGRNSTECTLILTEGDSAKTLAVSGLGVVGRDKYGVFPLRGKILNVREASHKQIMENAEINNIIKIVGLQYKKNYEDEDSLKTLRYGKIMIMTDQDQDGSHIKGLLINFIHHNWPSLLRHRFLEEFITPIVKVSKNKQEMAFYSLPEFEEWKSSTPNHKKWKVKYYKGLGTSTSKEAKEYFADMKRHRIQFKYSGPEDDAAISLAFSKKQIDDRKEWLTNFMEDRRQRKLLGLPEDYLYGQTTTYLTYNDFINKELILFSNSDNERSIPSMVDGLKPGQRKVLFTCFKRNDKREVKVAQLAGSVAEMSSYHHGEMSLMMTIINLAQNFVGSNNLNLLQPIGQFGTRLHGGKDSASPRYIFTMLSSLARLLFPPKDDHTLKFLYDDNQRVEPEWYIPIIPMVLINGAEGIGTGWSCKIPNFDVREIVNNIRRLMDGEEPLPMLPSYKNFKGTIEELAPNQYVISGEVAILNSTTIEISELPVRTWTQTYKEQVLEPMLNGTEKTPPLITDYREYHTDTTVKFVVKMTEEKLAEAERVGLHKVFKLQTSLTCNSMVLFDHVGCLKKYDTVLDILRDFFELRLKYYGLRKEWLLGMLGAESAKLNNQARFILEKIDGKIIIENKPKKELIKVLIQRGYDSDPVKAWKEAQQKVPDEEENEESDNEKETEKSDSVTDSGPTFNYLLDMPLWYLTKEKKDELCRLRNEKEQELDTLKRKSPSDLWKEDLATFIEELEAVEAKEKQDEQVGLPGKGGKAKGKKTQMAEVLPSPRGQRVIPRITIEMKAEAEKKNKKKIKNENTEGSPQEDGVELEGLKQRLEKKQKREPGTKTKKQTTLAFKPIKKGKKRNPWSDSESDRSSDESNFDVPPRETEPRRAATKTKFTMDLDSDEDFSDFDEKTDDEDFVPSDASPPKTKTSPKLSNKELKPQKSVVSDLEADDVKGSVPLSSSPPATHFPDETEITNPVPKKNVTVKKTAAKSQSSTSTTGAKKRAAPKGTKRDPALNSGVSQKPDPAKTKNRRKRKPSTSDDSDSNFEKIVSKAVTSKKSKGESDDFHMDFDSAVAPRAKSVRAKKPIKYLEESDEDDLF
PKN1: Serine/threonine-protein kinase N1 (PKN1, Homo sapiens, UniProt Q16512)
Sequence of UniProt Q16512 (whole entry, looked up): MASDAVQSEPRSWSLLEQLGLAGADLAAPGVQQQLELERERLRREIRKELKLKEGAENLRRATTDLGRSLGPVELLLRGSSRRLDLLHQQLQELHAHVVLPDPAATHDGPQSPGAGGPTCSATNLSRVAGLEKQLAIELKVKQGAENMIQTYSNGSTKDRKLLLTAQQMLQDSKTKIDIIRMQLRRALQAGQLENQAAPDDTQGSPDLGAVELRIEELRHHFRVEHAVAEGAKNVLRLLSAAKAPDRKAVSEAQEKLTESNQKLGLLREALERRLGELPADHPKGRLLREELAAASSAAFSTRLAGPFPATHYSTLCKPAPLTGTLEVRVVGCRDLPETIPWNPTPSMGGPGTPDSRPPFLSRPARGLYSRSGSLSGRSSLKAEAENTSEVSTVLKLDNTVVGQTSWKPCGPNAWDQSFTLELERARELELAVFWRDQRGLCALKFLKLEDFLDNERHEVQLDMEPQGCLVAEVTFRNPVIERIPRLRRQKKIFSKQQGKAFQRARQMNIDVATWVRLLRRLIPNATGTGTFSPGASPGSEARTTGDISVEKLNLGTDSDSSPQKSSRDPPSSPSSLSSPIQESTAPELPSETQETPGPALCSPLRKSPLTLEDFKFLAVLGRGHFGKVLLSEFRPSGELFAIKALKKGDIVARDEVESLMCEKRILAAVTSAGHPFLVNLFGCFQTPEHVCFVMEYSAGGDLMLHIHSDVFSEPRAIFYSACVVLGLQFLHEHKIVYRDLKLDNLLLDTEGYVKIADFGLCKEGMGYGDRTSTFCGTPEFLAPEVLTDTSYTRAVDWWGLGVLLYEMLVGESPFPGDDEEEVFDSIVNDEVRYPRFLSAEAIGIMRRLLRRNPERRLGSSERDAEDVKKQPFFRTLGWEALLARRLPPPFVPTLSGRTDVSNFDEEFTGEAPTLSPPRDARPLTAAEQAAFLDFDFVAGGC
Pteridine reductase 1: Pteridine reductase 1 (Leishmania major, UniProt Q01782)
Sequence of UniProt Q01782 (whole entry, looked up): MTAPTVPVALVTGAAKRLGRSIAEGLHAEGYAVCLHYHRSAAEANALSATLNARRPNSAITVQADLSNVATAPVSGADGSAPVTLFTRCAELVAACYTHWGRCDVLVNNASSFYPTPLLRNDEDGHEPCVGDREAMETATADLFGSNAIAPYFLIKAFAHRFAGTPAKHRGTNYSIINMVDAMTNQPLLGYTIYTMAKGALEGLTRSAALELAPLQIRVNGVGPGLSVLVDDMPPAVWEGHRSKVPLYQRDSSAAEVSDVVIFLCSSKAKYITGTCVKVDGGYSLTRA
Cereblon/Ikaros: Cereblon/Ikaros (Homo sapiens, UniProt Q13422+Q96SW2)
Sequence of UniProt Q13422 (whole entry, looked up): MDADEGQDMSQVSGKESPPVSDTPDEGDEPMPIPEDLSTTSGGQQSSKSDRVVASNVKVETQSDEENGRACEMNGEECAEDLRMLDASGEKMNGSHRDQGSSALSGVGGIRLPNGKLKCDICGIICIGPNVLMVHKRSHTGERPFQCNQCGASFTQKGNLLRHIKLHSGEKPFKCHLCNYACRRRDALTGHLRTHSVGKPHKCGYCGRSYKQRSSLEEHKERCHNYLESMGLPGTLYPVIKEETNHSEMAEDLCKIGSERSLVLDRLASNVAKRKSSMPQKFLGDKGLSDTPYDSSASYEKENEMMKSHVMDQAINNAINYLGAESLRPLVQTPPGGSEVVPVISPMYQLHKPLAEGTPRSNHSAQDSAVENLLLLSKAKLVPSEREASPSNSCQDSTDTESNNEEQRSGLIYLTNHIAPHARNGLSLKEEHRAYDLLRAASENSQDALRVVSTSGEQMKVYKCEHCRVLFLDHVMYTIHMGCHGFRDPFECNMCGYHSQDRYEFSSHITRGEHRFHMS
Sequence of UniProt Q96SW2 (whole entry, looked up): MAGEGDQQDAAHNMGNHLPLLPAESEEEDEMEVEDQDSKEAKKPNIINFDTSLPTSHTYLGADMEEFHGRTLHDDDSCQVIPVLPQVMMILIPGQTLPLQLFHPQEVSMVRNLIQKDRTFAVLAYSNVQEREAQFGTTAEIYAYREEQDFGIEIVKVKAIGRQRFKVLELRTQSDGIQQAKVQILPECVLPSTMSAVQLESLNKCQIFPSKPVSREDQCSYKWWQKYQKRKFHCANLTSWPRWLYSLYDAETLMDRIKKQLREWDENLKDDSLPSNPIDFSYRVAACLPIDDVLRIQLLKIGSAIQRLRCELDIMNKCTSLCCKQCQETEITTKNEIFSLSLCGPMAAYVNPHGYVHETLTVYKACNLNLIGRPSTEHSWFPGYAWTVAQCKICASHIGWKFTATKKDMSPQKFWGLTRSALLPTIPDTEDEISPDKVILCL
BEST2: Bestrophin-2a (BEST2, Homo sapiens, UniProt Q8NFU1)
Sequence of UniProt Q8NFU1 (whole entry, looked up): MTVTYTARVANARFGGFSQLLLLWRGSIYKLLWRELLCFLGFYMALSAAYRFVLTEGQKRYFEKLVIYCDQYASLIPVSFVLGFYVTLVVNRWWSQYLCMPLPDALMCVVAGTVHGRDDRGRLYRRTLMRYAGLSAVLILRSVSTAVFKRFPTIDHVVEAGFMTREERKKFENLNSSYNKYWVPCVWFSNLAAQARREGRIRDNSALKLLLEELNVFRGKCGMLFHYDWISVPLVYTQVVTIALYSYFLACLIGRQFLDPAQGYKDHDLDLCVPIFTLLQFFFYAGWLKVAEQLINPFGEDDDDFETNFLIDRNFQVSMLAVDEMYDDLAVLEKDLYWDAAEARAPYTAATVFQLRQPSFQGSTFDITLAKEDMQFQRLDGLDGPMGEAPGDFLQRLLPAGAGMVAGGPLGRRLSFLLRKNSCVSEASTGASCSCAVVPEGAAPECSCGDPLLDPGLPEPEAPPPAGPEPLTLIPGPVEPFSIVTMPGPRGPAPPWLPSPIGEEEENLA
T1: G-quadruplex RNA (Caenorhabditis elegans); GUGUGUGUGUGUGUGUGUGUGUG
Sequence of UniProt P00441 (whole entry, unmodified, looked up): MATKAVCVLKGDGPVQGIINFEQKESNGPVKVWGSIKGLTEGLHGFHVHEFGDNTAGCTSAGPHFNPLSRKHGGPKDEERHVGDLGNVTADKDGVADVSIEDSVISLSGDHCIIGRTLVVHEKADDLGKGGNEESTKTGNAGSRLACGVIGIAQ
Sequence of UniProt P51575 (whole entry, unmodified, looked up): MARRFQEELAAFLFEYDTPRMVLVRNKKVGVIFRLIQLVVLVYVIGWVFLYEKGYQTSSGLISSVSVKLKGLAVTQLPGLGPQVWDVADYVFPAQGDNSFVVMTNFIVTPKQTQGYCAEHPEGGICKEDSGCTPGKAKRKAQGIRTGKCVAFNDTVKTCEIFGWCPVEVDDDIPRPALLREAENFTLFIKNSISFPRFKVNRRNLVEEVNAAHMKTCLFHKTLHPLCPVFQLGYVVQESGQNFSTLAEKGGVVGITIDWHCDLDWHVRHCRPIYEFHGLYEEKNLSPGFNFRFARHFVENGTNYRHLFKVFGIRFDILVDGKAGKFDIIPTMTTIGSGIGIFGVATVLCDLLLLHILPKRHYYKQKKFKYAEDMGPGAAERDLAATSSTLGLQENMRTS

SMILES	target	assay	system	conditions	how to read	quantity	value
[Zn+2]	Otop1 (Mus musculus, UniProt Q80VM9)	acid-evoked current, inhibitor, whole-cell patch-clamp	HEK293T	0.001 mM, pH 5.5, unit not given	reference: current before compound	remaining current	0.903
C=CC(=O)N1CCC(COCC(=O)N2CCN(c3nc(-c4cnc(N)nc4C(F)F)nc(N4CCOC[C@@H]4C)n3)CC2)CC1	RPS6KB1 (Homo sapiens, UniProt P23443)	KINOMEscan	–	1 µM	–	remaining binding	100%
Cc1nc(CSc2nc(SCc3ccc(C(F)(F)F)cc3)nc(=O)[nH]2)cs1	TOP2A	decatenation	–	31.25 µM	–	mean decatenated DNA	73.4%
CCOc1cccc(C2CC(=O)Nc3c2c(C)nn3-c2ccc3nncn3n2)c1 (centres unmarked)	DDB1 (Homo sapiens, UniProt Q16531)	binding, surface plasmon resonance	–	3.75 µM	–	SPR response	3.79 RU
Oc1ccccc1-c1n[nH]cc1-c1ccnc2ccccc12	Actin-regulating kinase PRK1 (PRK1, Candida albicans, UniProt Q5A961)	kinase binding, MIB/MS competition	Candida albicans lysate	10 µM	reference: DMSO, negative = stronger binding	log2 fold change	-0.33
CCCCNc1ncc2c(-c3ccc(CN4CCN(C)CC4)cc3)cn([C@H]3CC[C@H](O)CC3)c2n1	PKN1	inhibitor	–	–	–	Hill slope	-0.735
O=[N+]([O-])c1cc(C(F)(F)F)ccc1NCc1ccsc1	Endothelial PAS domain-containing protein 1, PAS-B domain (EPAS1, Homo sapiens, UniProt Q99814)	ZZ-exchange NMR	–	25 °C	–	koff	1.06 ± 0.08 s⁻¹
[O-][S+]1CCCCS1 (centres unmarked)	SOD1 (Homo sapiens, UniProt P00441, G94A)	intact protein LC-MS	SOD1 G93A transgenic mice, whole blood	intravenous, 10 mg/kg, 24 h	–	target engagement	25.6% and 26%
COc1ccc(F)cc1C(=O)NCc1ccc(-c2nn([C@@H](C)C(F)(F)F)c(N)c2C(N)=O)cc1	BTK (Homo sapiens, UniProt Q06187)	differential scanning fluorimetry	–	added: BTK inhibitor 100 µM	–	second melting temperature	54 °C
Cc1nc(CSc2nc(SCc3ccc(C(C)C)cc3)nc(=O)[nH]2)cs1	TOP2A	DNA cleavage	–	125 µM, replicate 1	–	linear DNA	1.73%
COc1ccc(Oc2ccc(CN(Cc3ccccc3)Cc3cnc4nc(N)nc(N)c4n3)cc2)cc1	Pteridine reductase 1	–	–	hDHFR weight 10	reference: LmPTR1, LmDHFR over hDHFR, 1.0 selective, 0.0 non-selective	partition index	0.99
NCCCCC(=O)O	SLC6A6 (Homo sapiens, UniProt P31641, Y138A)	binding, microscale thermophoresis	–	977 nM, room temperature, added: 50 nM labelled protein	higher = more binding	normalised MST signal	-0.017
Nc1ccn([C@H]2C[C@H](O)[C@@H](COP(=O)(O)OP(=O)(O)OP(=O)(O)O)O2)c(=O)n1	RNA-directed RNA polymerase L (Human respiratory syncytial virus A, UniProt P28887)	nucleotide incorporation, substrate	–	–	–	Vmax	0.85 fraction per time
O=C1CCC(N2C(=O)C=C(Nc3cccc(S(=O)(=O)NCCc4ccc(C(F)(F)F)c(Cl)c4)c3)C2=O)C(=O)N1 (centres unmarked)	Cereblon/Ikaros	protein degradation, degrader, HiBiT luminescence	Jurkat	–	–	Dmax	52%
C[C@H](Nc1nc(N[C@H](C)C(F)(F)F)nc(-c2cccc(Cl)n2)n1)C(F)(F)F	IDH1 (Homo sapiens, UniProt O75874, R132H)	enzyme activity	–	heterodimer	–	maximal inhibition	90%
C=C1CN(S(=O)(=O)c2ccc(C)cc2)CCCN(Cc2ccccc2)CCCN(S(=O)(=O)c2ccc(C)cc2)C1	Protein transport protein Sec61 subunit alpha isoform 1 (Homo sapiens, UniProt P61619)	Sec61-dependent translocation, inhibitor, item: CD4 signal peptide-FLuc reporter	HEK293	0.12 mM, 6 h	–	FLuc/RLuc ratio	1.04

SMILES	target	assay	system	conditions	how to read	quantity	value
N[C@@H](CCC(=O)O)C(=O)O	BEST2	whole-cell patch clamp	HEK293 transfected	concentration not given, compound external permeant anion, at 100 mV	–	current density	57 pA/pF and 38.7 pA/pF and 56.6 pA/pF and 51.3 pA/pF and 41.7 pA/pF
c1ccc(CCCCCOCCc2ccc3[nH]ccc3c2)cc1	ATP2A2 (Sus scrofa, UniProt P11607)	ATPase activity, activator	pig microsomes	10 µM	–	increase in Vmax	~37%
CC(C)c1cc(CNc2nc(Nc3cc(C4CC4)[nH]n3)cc(N3CCN(C)CC3)n2)on1	PKN1	inhibitor	–	–	–	Hill slope	-0.787
O=C1CCC(N2C(=O)C=C(Nc3cccc(-c4cn(CCc5ccc(C(F)(F)F)c(Cl)c5)nn4)c3)C2=O)C(=O)N1 (centres unmarked)	Cereblon/Ikaros	protein degradation, degrader, HiBiT luminescence	Jurkat	–	–	Dmax	78%
O=C(O)C1=CCNCC1	BEST2	whole-cell patch clamp	HEK293 transiently expressing channel	concentration not given, membrane potential 100 mV	–	current density	99.3 pA/pF and 256 pA/pF and 207 pA/pF and 223 pA/pF and 372 pA/pF
O=c1nc(SCc2cc(F)cc(C(F)(F)F)c2)nc(SCc2ccc3ccccc3n2)[nH]1	TOP2A	decatenation	–	15.6 µM, replicate 2	–	decatenated DNA	79.1%
O=C(O)c1ccc(Nc2ncc3c(n2)-c2ccc(Cl)cc2C(c2c(F)cccc2F)=NC3)cc1	CaMKII(r)	kinase activity	–	1 µM	–	remaining activity	102%
N#Cc1ccc(C[C@@H](NC(=O)c2cc3ccccc3[nH]2)C(=O)N2CCc3ccccc32)cc1	FPR1 (Homo sapiens, UniProt P21462)	calcium mobilization, agonist	HL-60	concentration not given	–	agonist activity	inactive
COc1cccc2c(-c3ccc(CN4CCOCC4)cc3)cc(C(=O)Nc3ccc(C(=O)O)cc3)nc12	RARA (Homo sapiens, UniProt P10276)	transactivation, antagonist, reporter gene	–	up to 3300 nM, added: 9-cis-retinoic acid at EC80, 180 nM	–	antagonist activity	inactive
O=c1nc(SCc2cc(F)cc(C(F)(F)F)c2)nc(SCc2nc3ccccc3[nH]2)[nH]1	TOP2A	decatenation	–	15.6 µM	–	mean decatenated DNA	92%
CC(Oc1ccccc1)C(=O)NCc1ccccn1 (centres unmarked)	DNA (cytosine-5)-methyltransferase 3A, PWWP domain (DNMT3A, Homo sapiens, UniProt Q9Y6K1)	binding, affinity selection mass spectrometry	–	–	reference: other proteins in batch	log fold enrichment	-0.168
Nc1ncnc2c1ncn2[C@@H]1O[C@H](COP(=O)(O)CP(=O)(O)OP(=O)(O)O)[C@@H](O)[C@H]1O	P2X purinoceptor 1 (P2RX1, Homo sapiens, UniProt P51575, F188L)	saturation binding	HEK293	52 nM	–	specific binding	3570 CCPM and 5100 CCPM
CCc1c(C)c2cc3nc(cc4nc(cc5c(CC)c(C)c(cc1[nH]2)n5C)C(C)=C4CCC(=O)O)C(CCC(=O)O)=C3C	T1, G-quadruplex RNA (Caenorhabditis elegans)	UV-vis titration	–	–	–	Kd	1000 nM
O=C(COP(=O)(O)O)[C@@H](O)[C@H](O)[C@H](O)COP(=O)(O)O	GLUD1 (Homo sapiens, UniProt P00367)	thermal proteome profiling	HepG2 cell lysate	concentration not given, 57 over 37 °C, mean	reference: compound over control	thermal stability ratio	4.09
COc1ccc(CNC(=O)c2ccc(CNCc3cnc4nc(N)nc(N)c4n3)cc2)cc1	Pteridine reductase 1	–	–	hDHFR weight 10	reference: LmPTR1, LmDHFR over hDHFR, 1.0 selective, 0.0 non-selective	partition index	0.87
COc1ccc(C(=O)/C=C/c2cccc(-c3cccc(-c4ccc(CNC(CO)CO)c(OC)n4)c3C)c2)cc1	CD274 (Homo sapiens, UniProt Q9NZQ7)	degrader, western blot	HL-60	1 µM	–	degradation	< 5%

Some of these lines once more:
SMILES	target	assay	system	conditions	how to read	quantity	value
Oc1ccccc1-c1n[nH]cc1-c1ccnc2ccccc12	Actin-regulating kinase PRK1 (PRK1, Candida albicans, UniProt Q5A961)	kinase binding, MIB/MS competition	Candida albicans lysate	10 µM	reference: DMSO, negative = stronger binding	log2 fold change	-0.33
O=c1nc(SCc2cc(F)cc(C(F)(F)F)c2)nc(SCc2nc3ccccc3[nH]2)[nH]1	TOP2A	decatenation	–	15.6 µM	–	mean decatenated DNA	92%
